Results collected from several papers.
Compare with care: the assays were run in different laboratories. “And” joins repeats or separate records; there may be more than shown. ± marks the error that the study gave. In brackets after ≈: the same amount, converted by molar mass.

Compound	target or system	assay	test system	conditions	scale	quantity	result
O=C(c1ccc([C@H]2[C@@H](F)[C@@H](F)C[C@@H](F)[C@H]2F)cc1)N1CCCC1		liver microsome stability	mouse liver microsomes	1 µM		hepatic clearance	83 mL/min/kg
N#Cc1ccc(Nc2n[nH]c3nc(-c4ccccc4)nc(N)c23)cc1	rhinovirus B48	viral cytopathic effect	HeLa			IC50	18800 nM
CNCc1ccc2c(c1)C[C@H](CNC(=N)N)[C@H]2NC(=O)C(=O)Nc1ccc(Cl)c(F)c1	Human immunodeficiency virus 1	viral infection, Env pseudovirus	TZM-bl, C2101.c01 CRF01_AE			IC80	> 100000 nM
c1ccc(CN2CCOCCOCCN(CCCCCCCCCCN3CCOCCOCCN(CCCCCCCCCCN4CCOCCOCCN(Cc5ccccc5)CCOCCOCC4)CCOCCOCC3)CCOCCOCC2)cc1	Klebsiella pneumoniae	tetracycline activity	ATCC BAA-2146	2.5 µM, added: tetracycline	relative to: tetracycline alone	fold enhancement	1.1 fold
CCc1ccc(-c2nc(N)c3c(Nc4ccc(F)cc4)n[nH]c3n2)cc1	rhinovirus B48	viral cytopathic effect	HeLa			IC50	2080 nM
Nc1c(C(=O)c2ccc(Cl)cc2)sc(S)c1-c1nc2ccccc2s1	herpes simplex virus 1	plaque reduction		non-toxic dose NG, mean over three titres		viral reduction	20%
Cc1nc(N)c2c(Nc3ccc(F)cc3)n[nH]c2n1	rhinovirus B48	viral cytopathic effect	HeLa			IC50	75900 nM
c1ccc(CN2CCOCCOCCN(CCCCCCCCCCCCCCN3CCOCCOCCN(CCCCCCCCCCCCCCN4CCOCCOCCN(Cc5ccccc5)CCOCCOCC4)CCOCCOCC3)CCOCCOCC2)cc1	Klebsiella pneumoniae	checkerboard	ATCC BAA-2146	half MIC, added: tetracycline		FIC index	0.56
O=C(Nn1c(-c2cccc(Cl)c2)nc2ccccc2c1=O)c1ccccc1	Fasciola hepatica	motility, ex vivo	immature flukes			IC50	1120 ± 110 nM
FC(F)(F)c1cccc(CNc2nc(NC3CCN(Cc4ccccc4)CC3)c3nc[nH]c3n2)c1	Cryptococcus neoformans	RNA-seq, item: CNAG_03262 mRNA		48 µg/mL, 3 h	relative to: untreated wild type	log2 fold change	0.206
Cc1cc(Cl)cc(S(C)=NC#N)c1NC(=O)c1cc(Br)nn1-c1ncccc1Cl (centres unmarked)	Plutella xylostella		Raphanus sativus field	50 ppm, 168 h, 10% wettable powder		larval survival	10.7%
CC(=O)O[C@@H]1[C@@H](OC(C)=O)[C@H](Sc2sc(C(=O)c3ccc(Cl)cc3)c(N)c2-c2nc3ccccc3s2)OC[C@H]1OC(C)=O	herpes simplex virus 1	plaque reduction		non-toxic dose NG, mean over three titres		viral reduction	16.7%
O=c1c(-c2nc3ccccc3s2)cc2c(n1NS(=O)(=O)c1ccccc1)CCCCCC2	herpes simplex virus 1	viral replication, plaque	Vero	non-toxic dose, mean of three titres		plaque reduction	0%
c1ccc(CN2CCOCCOCCN(CCCCCCCCN3CCOCCOCCN(CCCCCCCCN4CCOCCOCCN(Cc5ccccc5)CCOCCOCC4)CCOCCOCC3)CCOCCOCC2)cc1	Klebsiella pneumoniae		ATCC BAA-2146	2.5 µM, added: tetracycline		FIC index	1
Cc1ccc(Nc2n[nH]c3nc(-c4ccc(F)cc4)nc(N)c23)cc1	rhinovirus B48	viral cytopathic effect	HeLa			IC50	8590 nM
C[C@@H]1C(=O)O[C@@H](C)/C=C/C=C\[C@@H](C)[C@@H]2C=C[C@@H]3C[C@@]4(C)O[C@H]4[C@@H](C)[C@H]3[C@@H]2C(=O)C(Cl)(Cl)C1=O	Staphylococcus aureus		MRSA clinical isolate	resistant: OXA,CIP,CLI,DAP,ERY,LVX,MXF,TOB		MIC	0.0125 µg/mL (≈ 0.0252 µM)
CC1(C)C(NC(=O)C(=NOC2(C(=O)O)CCC2)c2csc(N)n2)C(=O)N1OS(=O)(=O)O (centres unmarked)	Enterobacter aerogenes	agar dilution	ATCC 13048, susceptible			MIC	1 µg/mL (≈ 2.09 µM)
CC1(F)CN(C(=O)Cn2c(=O)c(C(=O)NCc3ccc(Cl)cc3)cc3nc(N4CCN(CCN)C4=O)cnc32)C1	herpes simplex virus 1	viral cytopathic effect	Vero	120 h		EC50	1870 nM
CC(C)C[C@H](NC(=O)[C@H](Cc1ccc(O)cc1)NC(=O)[C@@H]1CCCN1C(=O)[C@H](CCCNC(=N)N)NC(=O)[C@@H]1CCCN1C(=O)[C@H](CCCCN)NC(=O)[C@H](CC(=O)O)NC(=O)[C@@H]1CCCN1C(=O)[C@H](CCCNC(=N)N)NC(=O)C1(N)CCCCC1)C(=O)N1CCC[C@H]1C(=O)N[C@@H](CCCNC(=N)N)C(=O)N1CCC[C@H]1C(=O)N[C@@H](CCCNC(=N)N)C(=O)N1CCC[C@H]1C(=O)N1CCC[C@H]1C(=O)N[C@@H](CCCNC(=N)N)C(=O)N1CCC[C@H]1C(=O)N[C@H](C(=O)N[C@@H](CCCNC(=N)N)C(=O)N[C@@H](CSc1c(F)c(F)c(-c2c(F)c(F)c(SC[C@H](NC(=O)[C@H](CCCNC(=N)N)NC(=O)[C@@H](NC(=O)[C@@H]3CCCN3C(=O)[C@H](CCCNC(=N)N)NC(=O)[C@@H]3CCCN3C(=O)[C@@H]3CCCN3C(=O)[C@H](CCCNC(=N)N)NC(=O)[C@@H]3CCCN3C(=O)[C@H](CCCNC(=N)N)NC(=O)[C@@H]3CCCN3C(=O)[C@H](CC(C)C)NC(=O)[C@H](Cc3ccc(O)cc3)NC(=O)[C@@H]3CCCN3C(=O)[C@H](CCCNC(=N)N)NC(=O)[C@@H]3CCCN3C(=O)[C@H](CCCCN)NC(=O)[C@H](CC(=O)O)NC(=O)[C@@H]3CCCN3C(=O)[C@H](CCCNC(=N)N)NC(=O)C3(N)CCCCC3)C(C)C)C(=O)NN)c(F)c2F)c(F)c1F)C(=O)NN)C(C)C	Klebsiella pneumoniae	membrane disruption, propidium iodide uptake	13883	90 min, 37 °C		MDC	4.2 ± 0.1 µg/mL

Compound	target or system	assay	test system	conditions	scale	quantity	result
Nc1nc(-c2ccccc2)nc2[nH]nc(Nc3ccc(F)c(F)c3F)c12	rhinovirus B48	viral cytopathic effect	HeLa			IC50	100 nM
CC[C@H](C)CCCCC(=O)N[C@@H](CCN)C(=O)N[C@H](C(=O)N[C@@H](CCN)C(=O)N[C@H]1CCNC(=O)[C@H]([C@@H](C)O)NC(=O)[C@H](CCN)NC(=O)[C@H](CCN)NC(=O)[C@H](CC(C)C)NC(=O)[C@@H](CC(C)C)NC(=O)[C@H](CCN)NC1=O)[C@@H](C)O	Pseudomonas aeruginosa		BAA-2797, BALB/c mouse peritonitis, spleen	dose not given		bacterial load	2.2 log CFU and 2.3 log CFU and 1.9 log CFU
CCCCCCCCCC(=O)N[C@@H](Cc1c[nH]c2ccccc12)C(=O)N[C@H](CC(N)=O)C(=O)N[C@@H](CC(=O)O)C(=O)N[C@@H]1C(=O)NCC(=O)N[C@@H](CCCNC(=O)OC2/C=C/CCCCC2)C(=O)N[C@@H](CC(=O)O)C(=O)N[C@H](C)C(=O)N[C@@H](CC(=O)O)C(=O)NCC(=O)N[C@H](CO)C(=O)N[C@@H]([C@H](C)CC(=O)O)C(=O)N[C@@H](CC(=O)c2ccccc2N)C(=O)O[C@@H]1C (some centres unmarked)	Staphylococcus aureus	planktonic bacterial growth, isothermal microcalorimetry	MRSA	1.0 µg/mL, 24 h, 37 °C, added: TAG hydrogel		peak heat flow time	0 h
COc1ccc(Nc2n[nH]c3nc(-c4ccccc4)nc(N)c23)cc1	rhinovirus B48	viral cytopathic effect	HeLa			IC50	40 nM
CCCCNCCO.O=C(O)C(Cl)Cl	Solanum nigrum	herbicidal activity		15 mg/mL, 21 days, pre-emergence greenhouse		inhibition	0%
Cc1ccc(S(=O)(=O)Nn2c3c(cc(-c4nc5ccccc5s4)c2=O)CCCCCC3)cc1	herpes simplex virus 1	viral replication, plaque	Vero	non-toxic dose, mean of three titres		plaque reduction	63.3%
C=C1C(=O)OC2C1CCC(C)(O)C13C=CC(C)(C21)C1(C3)C(=O)OC2C3C(C)C(=O)CC3C(=C)CC(OC(C)=O)C21 (centres unmarked)	Danio rerio			concentration not given, HFD-fed larvae NAFLD model		SOD2 activity	increased
OC(Cn1cncn1)(Cn1cc(-[c-]2cccc2)nn1)c1ccc(F)cc1F.[Cl-].[Co+3].c1cc[cH-]c1 (racemic)	Candida glabrata	EUCAST				MIC50	100 µM
CC(C)(C)NCC(SS(=O)(=O)O)c1ccccc1 (centres unmarked)	Schistosoma mansoni		mice	600 mg/kg single dose, 1056 h, dosed day 1, perfused 44	relative to: vehicle	male worm burden reduction	-0.893%
Nc1nc(-c2ccccc2)nc2[nH]nc(Nc3cccc(F)c3)c12	rhinovirus B48	viral cytopathic effect	HeLa			IC50	380 nM
COC1C=COC2(C)Oc3c(C)c(O)c4c(c3C2=O)C2=NC3(CCN(CC(C)C)CC3)NC2=C(NC(=O)C(C)=CC=CC(C)C(O)C(C)C(O)C(C)C(OC(=O)Nc2cccnn2)C1C)C4=O (centres unmarked)	Mycobacteroides abscessus	intracellular growth, Hill fit	THP-1 derived macrophages, ATCC 19977			IC90	370 nM
Cc1cc(C(=O)Nc2nc3cccc(C)c3n2[C@H]2CCCCN(C(=O)/C=C/CN(C)C)C2)ccn1	Trypanosoma brucei brucei		Lister 427	0.069 µM, 0 h, kill kinetics		proliferation	100%
CC1(C)[C@H](NC(=O)/C(=N\OCC(=O)N2CCC(C(=O)O)C2)c2nsc(N)n2)C(=O)N1OS(=O)(=O)O (some centres unmarked)	Enterobacter aerogenes	agar dilution	ATCC 13048, susceptible			MIC	4 µg/mL (≈ 7.47 µM)
C=C(NC(=O)c1csc(-c2nc3c(cc2O)-c2nc(cs2)C(=O)NC(C(C)O)C(=O)NC(=C(C)OC)c2nc(cs2)C(=O)NC2c4nc(cs4)C(=O)NC(COC(=O)c4c5c6c(cccc6n4O)COC(=O)C(OC4CC(C)(O)C(N(C)C)C(C)O4)C2OC5)c2nc-3cs2)n1)C(N)=O (centres unmarked)	Staphylococcus epidermidis	microbial growth, broth dilution		clinical isolate		MIC50	0.0156 µg/mL
CC(=O)Nc1ccc([C@H]2[C@@H](F)[C@@H](F)C[C@@H](F)[C@H]2F)cc1		liver microsome stability	cynomolgus liver microsomes	1 µM		hepatic clearance	29 mL/min/kg
C[N+](C)(C)CCO.O=C([O-])C(Cl)Cl	Solanum nigrum	herbicidal activity		15 mg/mL, 21 days, pre-emergence greenhouse		inhibition	0%
C=C[C@]1(C)C[C@@H](OC(=O)CSc2ccc(NC(=O)c3ccco3)cc2)[C@]2(C)[C@H](C)CC[C@]3(CCC(=O)[C@H]32)[C@@H](C)[C@@H]1O	Mycoplasma gallisepticum	sigmoid Emax model, Cmax/MIC	infected chickens			Hill slope	5.09
Cc1cccc2c1N(C(=O)n1ccnn1)CC2	Arabidopsis thaliana		wild type, seedlings	1 µM, continuous red light, added: 0.3 µM karrikin KAR2		hypocotyl length	13.7 mm
Nc1nc(-c2ccccc2)nc2[nH]nc(Nc3ccccc3C(F)(F)F)c12	rhinovirus B48	viral cytopathic effect	HeLa			IC50	54600 nM

Some of these lines once more:
Compound	target or system	assay	test system	conditions	scale	quantity	result
CCCCNCCO.O=C(O)C(Cl)Cl	Solanum nigrum	herbicidal activity		15 mg/mL, 21 days, pre-emergence greenhouse		inhibition	0%
Cc1ccc(S(=O)(=O)Nn2c3c(cc(-c4nc5ccccc5s4)c2=O)CCCCCC3)cc1	herpes simplex virus 1	viral replication, plaque	Vero	non-toxic dose, mean of three titres		plaque reduction	63.3%
